Assay results collected from several papers.
Parts stem from different laboratories: compare values within a part only. Substitutions count along the parent as printed.
UniProt P62344, sequence (whole entry, looked up): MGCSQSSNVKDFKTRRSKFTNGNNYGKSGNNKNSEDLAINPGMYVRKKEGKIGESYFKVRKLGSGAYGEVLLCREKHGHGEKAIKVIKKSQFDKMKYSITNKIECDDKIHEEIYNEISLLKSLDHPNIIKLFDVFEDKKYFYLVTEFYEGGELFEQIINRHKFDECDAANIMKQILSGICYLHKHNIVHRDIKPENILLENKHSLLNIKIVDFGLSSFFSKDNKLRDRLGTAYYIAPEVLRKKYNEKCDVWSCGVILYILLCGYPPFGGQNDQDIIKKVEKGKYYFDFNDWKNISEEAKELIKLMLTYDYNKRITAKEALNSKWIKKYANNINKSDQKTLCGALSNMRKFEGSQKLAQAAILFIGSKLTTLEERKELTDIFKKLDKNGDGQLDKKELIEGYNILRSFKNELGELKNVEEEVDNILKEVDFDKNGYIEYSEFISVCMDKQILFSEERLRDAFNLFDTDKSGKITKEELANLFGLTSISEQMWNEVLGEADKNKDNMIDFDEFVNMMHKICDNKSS

Sample 1 — target: CCNB2, cyclin fold, Cln2 fusion (human); technique: yeast growth competition, sequencing; matrix: yeast; notes: weak parent motif; relative to: not given; direction: higher = stronger binding
Starting sequence: viral docking peptide; KGVKRKLFAEDSS; partner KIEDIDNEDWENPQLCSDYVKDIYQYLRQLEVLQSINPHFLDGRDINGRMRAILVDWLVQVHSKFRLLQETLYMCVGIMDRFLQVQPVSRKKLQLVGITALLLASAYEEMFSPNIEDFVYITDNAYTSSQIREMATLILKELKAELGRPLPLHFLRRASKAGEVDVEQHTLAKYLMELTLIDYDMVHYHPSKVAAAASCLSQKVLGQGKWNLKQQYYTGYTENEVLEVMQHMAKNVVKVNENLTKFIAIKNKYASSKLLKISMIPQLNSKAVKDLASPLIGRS
| Change | normalised enrichment score |
| --- | --- |
| V3R | 0.421 |
| K6C | 0.28 |
| K4W | 0.0996 |
| S12I | 1.25 |
| V3S | 0.169 |
| K4N | 0.206 |
| R5S | 0.181 |
| E10K | 0.631 |
| K6S | 0.523 |
| V3P | 0.615 |
| V3E | 0.325 |
| K4G | 0.164 |
| K1A | 0.949 |
| L7A | 0.097 |
| K6W | -0.107 |
| F8C | 0.319 |
| R5L | 0.167 |
| K4L | 0.398 |
| R5C | 0.948 |
| G2W | 0.783 |
| G2V | 0.95 |

Sample 2 — read-out: peptide-MHC binding; molecule type: peptide; concentration: concentration not given
Target: HLA class I histocompatibility antigen, A alpha chain, allele A*80:01 (Homo sapiens, UniProt P04439)
| Sequence | binding |
| --- | --- |
| APFARLLNL | inactive |
| RRFTQAIYD | inactive |
| KQIVIINPM | inactive |
| FAEGVIAFL | inactive |
| HTQAIEGAW | inactive |
| SAEVVTLWY | inactive |
| ISSGETRSF | inactive |
| YLKKLDDFY | inactive |
| LTDRELLLL | inactive |
| ETESATLFT | inactive |
| KPPRGVLLY | inactive |
| LEARVNLSV | inactive |
| RSVWIPGRW | inactive |
| DLEKYNLAF | inactive |
| DSFAKQPQW | inactive |
| LAIVTTPLV | inactive |
| VVARLGVPY | inactive |
| ILNHKFCNL | inactive |
| EKDSNHNVL | inactive |
| GMSWITQGL | inactive |
| TVIYRGTTF | inactive |

Single results of other studies
| Substance | tested on | test | system | setting | quantity | value |
| --- | --- | --- | --- | --- | --- | --- |
| FUOM (Homo sapiens, UniProt A2VDF0) | PTBP1 (Homo sapiens, UniProt P26599) | cross-linking MS | cell fractions | added: DMTMM | cross-linked residues | K5 to E74 |
| O=C(NCc1ncc(C(F)(F)F)cc1Cl)c1ccc2c(c1)C1(CCS(=O)(=O)CC1)[C@H](C1CC1)N2S(=O)(=O)c1ccc(F)cc1 | CDPK1 (Plasmodium falciparum, UniProt P62344) | cell-free assay, competition with immobilised ligand | – | 1 µM | remaining binding | 85% |
| RRP12 (Homo sapiens, UniProt Q5JTH9) | WDR3 (Homo sapiens, UniProt Q9UNX4) | cross-linking MS | cell fractions | added: DSSO | cross-linked residues | S515 to K536 |
| ILF2 (Homo sapiens, UniProt Q12905) | ILF3 (Homo sapiens, UniProt Q12906) | cross-linking MS | – | hits only | interaction screen | cross-linked |
| PSMD9 (Homo sapiens, UniProt O00233) | PSMC3 (Homo sapiens, UniProt P17980) | cross-linking MS | cell fractions | added: DSSO | cross-linked residues | K91 to K173 |

Repeated from above (sample 2):
| Sequence | binding |
| --- | --- |
| LAIVTTPLV | inactive |
| ILNHKFCNL | inactive |
| VVARLGVPY | inactive |
| LEARVNLSV | inactive |
| ETESATLFT | inactive |
| RSVWIPGRW | inactive |
| GMSWITQGL | inactive |
